Measurements from different studies.
A part holds a random share of what one study measured. Substitutions count along the parent as printed.

Set 1 — method: aptamer microarray, sandwich; form: DNA with 2'F-ANA; medium: in vitro; concentration: 200 nM; together with: Cy3 exosite-II aptamer, 400 nM; direction: higher = stronger binding; strand: GGTTGGTGTGGTTGG
Target: Prothrombin, mature alpha-thrombin (F2, Homo sapiens, UniProt P00734)
Notes: whole 15-mer aptamer, many near background
Under “mean fluorescence intensity”, `2'F-ANA at 1 5 12 13 14 15` is recorded as 47.3 a.u.
For `2'F-ANA at 1 3 5 6 7 8 9 10 11 12`, “mean fluorescence intensity” read 51.2 a.u.
Under “mean fluorescence intensity”, `2'F-ANA at 1 2 5 6 10 11 13` is recorded as 45.5 a.u.
`2'F-ANA at 4 5 7 8 9 12 13 14 15` — result for “mean fluorescence intensity”: 48.7 a.u.
`2'F-ANA at 2 3 6 9 10 12` — result for “mean fluorescence intensity”: 390 a.u.
For `2'F-ANA at 5 6 12 13 15`, “mean fluorescence intensity” read 111 a.u.

Set 2 — method: DHFR PCA, deep sequencing; medium: yeast; together with: (+)-ABA 17 µM; baseline: wild-type fitted maximum; direction: higher = stronger binding
Target: ABI1, truncated, D143A, DHFR fusion (Arabidopsis thaliana)
Notes: methotrexate growth selection, single substitutions
Starting sequence: PYL1, truncated, DHFR fusion (Arabidopsis thaliana); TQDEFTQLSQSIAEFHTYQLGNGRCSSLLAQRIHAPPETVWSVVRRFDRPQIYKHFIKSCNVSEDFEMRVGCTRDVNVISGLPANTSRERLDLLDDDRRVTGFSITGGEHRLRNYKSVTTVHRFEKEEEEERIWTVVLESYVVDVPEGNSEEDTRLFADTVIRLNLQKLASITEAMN; partner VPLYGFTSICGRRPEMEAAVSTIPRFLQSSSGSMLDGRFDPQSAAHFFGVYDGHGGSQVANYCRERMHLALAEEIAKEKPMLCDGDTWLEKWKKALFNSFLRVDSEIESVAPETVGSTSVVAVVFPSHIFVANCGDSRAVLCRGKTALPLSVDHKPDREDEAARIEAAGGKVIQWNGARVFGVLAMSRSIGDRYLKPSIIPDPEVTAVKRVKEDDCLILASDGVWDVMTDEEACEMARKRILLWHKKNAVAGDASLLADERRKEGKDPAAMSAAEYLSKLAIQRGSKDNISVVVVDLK
`H55V`: “relative binding score” 97.9%.
Under “relative binding score”, `P37L` is recorded as 50.7%.
`Q19G`: “relative binding score” 70.5%.
`T173N`: “relative binding score” 14.1%.
For `V143M`, “relative binding score” read 41.8%.
`L91F` — result for “relative binding score”: -8.44%.
`V43P`: “relative binding score” 0.836%.

Set 3 — target: CCND1, cyclin fold, Cln2 fusion (human); method: yeast growth competition, sequencing; medium: yeast; notes: weak parent motif; baseline: not given; direction: higher = stronger binding
Starting sequence: GMNC docking peptide (human); KNAKRNLSSEFAN; partner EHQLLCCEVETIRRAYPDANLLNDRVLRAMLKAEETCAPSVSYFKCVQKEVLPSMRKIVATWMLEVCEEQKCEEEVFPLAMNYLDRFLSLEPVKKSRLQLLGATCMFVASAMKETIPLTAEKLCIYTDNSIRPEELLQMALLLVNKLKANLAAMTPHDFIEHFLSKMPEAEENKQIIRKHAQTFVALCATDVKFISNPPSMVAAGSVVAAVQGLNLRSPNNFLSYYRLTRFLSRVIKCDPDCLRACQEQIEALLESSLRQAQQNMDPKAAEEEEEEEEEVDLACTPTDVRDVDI
Under “normalised enrichment score”, `KNFKRNLSSEFAN [A3F]` is recorded as 0.261.
`KNAHRNLSSEFAN [K4H]` — result for “normalised enrichment score”: -0.0483.
Under “normalised enrichment score”, `KNLKRNLSSEFAN [A3L]` is recorded as 0.285.
Under “normalised enrichment score”, `KNAKRNLSSEFFN [A12F]` is recorded as 0.422.
For `KNAVRNLSSEFAN [K4V]`, “normalised enrichment score” read 0.78.
For `KNAKRNLSDEFAN [S9D]`, “normalised enrichment score” read 1.02.
For `KNAKRNLSSEFNN [A12N]`, “normalised enrichment score” read 0.775.

Other studies, line by line
`PhoQ, residues 284 288 289 292 302 303 AAQSYM` has a fold induction of 1.45 (PhoP, residues 12 14 15 18 19 YHFSH (Escherichia coli, UniProt P23836); Sort-seq, item: YFP reporter; E. coli; PhoQ-PhoP variant library, together with: 10 µM Mg2+; baseline: high Mg2+ state, higher = stronger signaling).
